Published values from different studies.
Values joined by “and” are separate records of one study, mostly repeats; a detail may differ. ± marks the error that the study gave.
B1: Tomm70 S94E (Mus musculus, UniProt Q9CZW5); sequence looked up; chain MAASKPIEAAMAAAAAPGSGNGVGGGGGTAGPGSGAGTLPRWHVALAIGAPLLLGAGAMYLWSRRRRRREAGGRGDASGLKRNSERKTPEGRAEPALGSGHHDGSGDSLEMSSLDRAQAAKNKGNKYFKAGKYEQAIQCYTEAISLCPTEKNVDLSTFYQNRAAAFEQLQKWKEVAQDCTKAVELNPKYVKALFRRAKAHEKLDNKKECLEDVTAVCILEGFQNEQSMLLADKVLKLLGKENAKEKYKNREPLMPSPQFIKSYFSSFTDDIISQPMLKGEKSDEDKDKEGEALEVKENSGYLKAKQYMEEENYDKIISECSKEIDAQGKYMAEALLLRATFYLLIGSANAAKPDLDKVISLKEANVKLRANALIKRGTMCMQQQQPMLSTQDFNMAAEIDPMNSDVYHHRGQLKILLDLVEEAVADFDACIRLRPKFALAQAQKCFALYRQAYTANNSSQVQAAMKGFEEIIKKFPRCAEGYALYAQALTDQQQFGKADEMYDKCIDLEPDNATTYVHKGLLQLQWKQDLDKGLELISKAIEIDNKCDFAYETMGTIEVQRGNMEKAIDMFNKAINLAKSEMEMAHLYSLCDAAHAQTEVAKKYGLKPPTL
B2: TPT1 (Homo sapiens, UniProt P13693); sequence looked up; chain MIIYRDLISHDEMFSDIYKIREIADGLCLEVEGKMVSRTEGNIDDSLIGGNASAEGPEGEGTESTVITGVDIVMNHHLQETSFTKEAYKKYIKDYMKSIKGKLEEQRPERVKPFMTGAAEQIKHILANFKNYQFFIGENMNPDGMVALLDYREDGVTPYMIFFKDGLEMEKC
B3: FabZ 3-149 (Kuenenia stuttgartiensis, UniProt Q1Q2X5); chain LFEEIRSLLPQKYPFIFIDRAIEFEESKRIVCVKNISGNEPVFVGHFPDFAIMPGVLIIEAMAQASIILFRKSLPSRNDEDAVFLLASVNNARFTKPVVPGDQLTIEVIVEKIVSRGAIVQSVVKVQEKVVAKAALTFGIVEKSSLV
B4: racE (Dictyostelium discoideum, UniProt Q23862); sequence looked up; chain MSEDQGSGATRVKLVVVGDGAVGKTCLLICYAQNDFPVDYVPTVFENYTATRKRGNEDIKVHLWDTAGQEEYDRLRPLSYPGADVVLLCFSTISQSSYEAIRDKWAPEVNHYIPDVPSILVGTKIDLREQQHPDPNSGKFEPITADMGISMQKQIKAKKYLEVSAKTRQGLEEVFSAAIEIVLESRGMDKKSQDGSSSASGVPSGDKPTKGKAGKKKSGCIIL
B5: Btk 215-378 (Mus musculus, UniProt P35991); sequence looked up; chain ELKKVVALYDYMPMNANDLQLRKGEEYFILEESNLPWWRARDKNGQEGYIPSNYITEAEDSIEMYEWYSKHMTRSQAEQLLKQEGKEGGFIVRDSSKAGKYTVSVFAKSTGEPQGVIRHYVVCSTPQSQYYLAEKHLFSTIPELINYHQHNSAGLISRLKYPVS
B6: Per2 1-320 (Mus musculus, UniProt O54943); sequence looked up; chain MNGYVDFSPSPTSPTKEPGAPQPTQAVLQEDVDMSSGSSGNENCSTGRDSQGSDCDDNGKELRMLVESSNTHPSPDDAFRLMMTEAEHNPSTSGCSSEQSAKADAHKELIRTLKELKVHLPADKKAKGKASTLATLKYALRSVKQVKANEEYYQLLMSSESQPCSVDVPSYSMEQVEGITSEYIVKNADMFAVAVSLVSGKILYISNQVASIFHCKKDAFSDAKFVEFLAPHDVSVFHSYTTPYKLPPWSVCSGLDSFTQECMEEKSFFCRVSVGKHHENEIRYQPFRMTPYLVKVQEQQGAESQLCCLLLAERVHSGYE
B7: PGL-3 1-447 (Caenorhabditis elegans, UniProt G5EBV6); sequence looked up; chain MEANKRQIVEVDGIKSYFFPHLAHYLASNDELLVNNIAQANKLAAFVLGATDKRPSNEEIAEMILPNDSSAYVLAAGMDVCLILGDDFRPKFDSGAEKLSQLGQAHDLAPIIDDEKKISMLARKTKLKKSNDAKILQVLLKVLGAEEAEEKFVELSELSSALDLDFDVYVLAKLLGFASEELQEEIEIIRDNVTDAFEACKPLLKKLMIEGPKIDSVDPFTQLLLTPQEESIEKAVSHIVARFEEASAVEDDESLVLKSQLGYQLIFLVVRSLADGKRDASRTIQSLMPSSVRAEVFPGLQRSVFKSAVFLASHIIQVFLGSMKSFEDWAFVGLAEDLESTWRRRAIAELLKKFRISVLEQCFSQPIPLLPQSELNNETVIENVNNALQFALWITEFYGSESEKKSLNQLQFLSPKSKNLLVDSFKKFAQGLDSKDHVNRIIESLEK
B8: bcsG (Escherichia coli, UniProt P37659); chain MTQFTQNTAMPSSLWQYWRGLSGWNFYFLVKFGLLWAGYLNFHPLLNLVFAAFLLMPLPRYSLHRLRHWIALPIGFALFWHDTWLPGPESIMSQGSQVAGFSTDYLIDLVTRFINWQMIGAIFVLLVAWLFLSQWIRITVFVVAILLWLNVLTLAGPSFSLWPAGQPTTTVTTTGGNAAATVAATGGAPVVGDMPAQTAPPTTANLNAWLNNFYNAEAKRKSTFPSSLPADAQPFELLVINICSLSWSDIEAAGLMSHPLWSHFDIEFKNFNSATSYSGPAAIRLLRASCGQTSHTNLYQPANNDCYLFDNLSKLGFTQHLMMGHNGQFGGFLKEVRENGGMQSELMDQTNLPVILLGFDGSPVYDDTAVLNRWLDVTEKDKNSRSATFYNTLPLHDGNHYPGVSKTADYKARAQKFFDELDAFFTELEKSGRKVMVVVVPEHGGALKGDRMQVSGLRDIPSPSITDVPVGVKFFGMKAPHQGAPIVIEQPSSFLAISDLVVRVLDGKIFTEDNVDWKKLTSGLPQTAPVSENSNAVVIQYQDKPYVRLNGGDWVPYPQ
B9: PRPS2 (human); sequence looked up; chain PNIVLFSGSSHQDLSQRVADRLGLELGKVVTKKFSNQETSVEIGESVRGEDVYIIQSGCGEINDNLMELLIMINACKIASSSRVTAVIPCFPYARQDKKDKSRAPISAKLVANMLSVAGADHIITMDLHASQIQGFFDIPVDNLYAEPAVLQWIRENIAEWKNCIIVSPDAGGAKRVTSIADRLNVEFALIHKERKKANEVDRMVLVGDVKDRVAILVDDMADTCGTICHAADKLLSAGATKVYAILTHGIFSGPAISRINNAAFEAVVVTNTIPQEDKMKHCTKIQVIDISMILAEAIRRTHNGESVSYLFSHVPL
B10: TGFBI FAS1-4 domain, residues 502-657 R555Q (Homo sapiens, UniProt Q15582); chain AGMGTVMDVLKGDNRFSMLVAAIQSAGLTETLNREGVYTVFAPTNEAFRALPPREQSRLLGDAKELANILKYHIGDEILVSGGIGALVRLKSLQGDKLEVSLKNNVVSVNKEPVAEPDIMATNGVVHVITNVLQPPANRPQERGDELADSALEIFKQA
B11: Pah (Rattus norvegicus, UniProt P04176); sequence looked up; chain MAAVVLENGVLSRKLSDFGQETSYIEDNSNQNGAISLIFSLKEEVGALAKVLRLFEENDINLTHIESRPSRLNKDEYEFFTYLDKRTKPVLGSIIKSLRNDIGATVHELSRDKEKNTVPWFPRTIQELDRFANQILSYGAELDADHPGFKDPVYRARRKQFADIAYNYRHGQPIPRVEYTEEEKQTWGTVFRTLKALYKTHACYEHNHIFPLLEKYCGFREDNIPQLEDVSQFLQTCTGFRLRPVAGLLSSRDFLGGLAFRVFHCTQYIRHGSKPMYTPEPDICHELLGHVPLFSDRSFAQFSQEIGLASLGAPDEYIEKLATIYWFTVEFGLCKEGDSIKAYGAGLLSSFGELQYCLSDKPKLLPLELEKTACQEYSVTEFQPLYYVAESFSDAKEKVRTFAATIPRPFSVRYDPYTQRVEVLDNTQQLKILADSINSEVGILCNALQKIKS
B12: cooS 1-639 C41S/C49S (Rhodospirillum rubrum, UniProt P31896); chain MTHHDCAHCSSDACATEMLNLAEANSIETAWHRYEKQQPQSGFGSAGLSCRICLKGPCRIDPFGEGPKYGVCGADRDTIVARHLVRMIAAGTAAHSEHGRHIALAMQHISQGELHDYSIRDEAKLYAIAKTLGVATEGRGLLAIVGDLAAITLGDFQNQDYDKPCAWLAASLTPRRVKRLGDLGLLPHNIDASVAQTMSRTHVGCDADPTNLILGGLRVAMADLDGSMLATELSDALFGTPQPVVSAANLGVMKRGAVNIAVNGHNPMLSDIICDVAADLRDEAIAAGAAEGINIIGICCTGHEVMMRHGVPLATNYLSQELPILTGALEAMVVDVQCIMPSLPRIAECFHTQIITTDKHNKISGATHVPFDEHKAVETAKTIIRMAIAAFGRRDPNRVAIPAFKQKSIVGFSAEAVVAALAKVNADDPLKPLVDNVVNGNIQGIVLFVGCNTTKVQQDSAYVDLAKSLAKRNVLVLATGCAAGAFAKAGLMTSEATTQYAGEGLKGVLSAIGTAAGLGGPLPLVMHMGSCVDNSRAVALATALANKLGVDLSDLPLVASAPECMSEKALAIGSWAVTIGLPTHVGSVPPVIGSQIVTKLVTETAKDLVGGYFIVDTDPKSAGDKLYAAIQERRAGLGL
B13: RNASE1 mature P114G/H119A (Bos taurus, UniProt P61823); sequence looked up; chain KETAAAKFERQHMDSSTSAASSSNYCNQMMKSRNLTKDRCKPVNTFVHESLADVQAVCSQKNVACKNGQTNCYQSYSTMSITDCRETGSSKYPNCAYKTTQANKHIIVACEGNGYVPVAFDASV
B14: RTT106 residues 1-67 (Saccharomyces cerevisiae, UniProt P40161); chain GHMMSKLFLDELPESLSRKIGTVVRVLPSSLEIFEELYKYALNENSNDRSGRHKKPRIDVSSDLLKTDEI
B15: human MCM4; sequence looked up; chain SSPASTPSRRGSRRGRATPAQTPRSEDARSSPSQRRRGEDSTSTGELQPMPTSPGVDLQSPAAQDVLFSSPPQMHSSAIPLDFDVSSPLTYGTPSSRVEGTPRSGVRGTPVRQRPDLGSAQKGLQVDLQSDGAAAEDIVASEQSLGQKLVIWGTDVNVAACKENFQRFLQRFIDPLAKEEENVGIDITEPLYMQRLGEINVIGEPFLNVNCEHIKSFDKNLYRQLISYPQEVIPTFDMAVNEIFFDRYPDSILEHQIQVRPFNALKTKNMRNLNPEDIDQLITISGMVIRTSQLIPEMQEAFFQCQVCAHTTRVEMDRGRIAEPSVCGRCHTTHSMALIHNRSLFSDKQMIKLQESPEDMPAGQTPHTVILFAHNDLVDKVQPGDRVNVTGIYRAVPIRVNPRVSNVKSVYKTHIDVIHYRKTDAKRLHGLDEEAEQKLFSEKRVELLKELSRKPDIYERLASALAPSIYEHEDIKKGILLQLFGGTRKDFSHTGRGKFRAEINILLCGDPGTSKSQLLQYVYNLVPRGQYTSGKGSSAVGLTAYVMKDPETRQLVLQTGALVLSDNGICCIDEFDKMNESTRSVLHEVMEQQTLSIAKAGIICQLNARTSVLAAANPIESQWNPKKTTIENIQLPHTLLSRFDLIFLLLDPQDEAYDRRLAHHLVALYYQSEEQAEEELLDMAVLKDYIAYAHSTIMPRLSEEASQALIEAYVDMRKIGSSRGMVSAYPRQLESLIRLAEAHAKVRLSNKVEAIDVEEAKRLHREALKQSATDPRTGIVDISILTTGMSATSRKRKEELAEALKKLILSKGKTPALKYQQLFEDIRGQSDIAITKDMFEEALRALADDDFLTVTGKTVRLL
B16: REC107 (Saccharomyces cerevisiae, UniProt P21651); chain MVARGRTDEISTDVSEANSEHSLMITETSSPFRSIFSHSGKVANAGALEESDKQILEWAGKLELESMELRENSDKLIKVLNENSKTLCKSLNKFNQLLEQDAATNGNVKTLIKDLASQIENQLDKVSTAMLSKGDEKKTKSDSSYRQVLVEEISRYNSKITRHVTNKQHETEKSMRCTQEMLFNVGSQLEDVHKVLLSLSKDMHSLQTRQTALEMAFREKADHAYDRPDVSLNGTTLLHDMDEAHDKQRKKSVPPPRMMVTRSMKRRRSSSPTLSTSQNHNSEDNDDASHRLKRAARTIIPWEELRPDTLESEL
UniProt P26368, sequence (whole entry, looked up): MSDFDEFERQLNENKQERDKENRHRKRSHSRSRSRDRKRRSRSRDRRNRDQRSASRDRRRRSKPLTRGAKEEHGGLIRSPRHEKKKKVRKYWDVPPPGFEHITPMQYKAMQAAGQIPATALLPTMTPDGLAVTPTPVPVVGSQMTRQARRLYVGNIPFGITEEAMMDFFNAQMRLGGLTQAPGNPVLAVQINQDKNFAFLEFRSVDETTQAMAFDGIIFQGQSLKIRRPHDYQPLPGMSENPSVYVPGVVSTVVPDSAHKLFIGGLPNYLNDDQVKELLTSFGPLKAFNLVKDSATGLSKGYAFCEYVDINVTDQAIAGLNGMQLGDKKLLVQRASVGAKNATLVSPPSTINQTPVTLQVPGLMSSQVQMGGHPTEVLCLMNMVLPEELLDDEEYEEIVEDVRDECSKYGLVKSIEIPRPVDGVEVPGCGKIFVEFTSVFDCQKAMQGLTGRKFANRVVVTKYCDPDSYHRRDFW

Substance	tested on	test	system	conditions	scale	endpoint	result
B1 (Tomm70 S94E)	itself	native PAGE				subunits per oligomer	2
B2 (TPT1)	itself	western blot, non-reducing SDS-PAGE	BEAS-2B, culture supernatant	not purified		subunits per oligomer	6 and 2
B3 (FabZ 3-149)	itself	X-ray crystallography				subunits per oligomer	6
B4 (racE)	itself	SEC				subunits per oligomer	2
human ME2 L79F		enzyme activity, NADH absorbance		with fumarate 3 mM, together with: L-malate varied		Hill coefficient	1.2 ± 0.04
B5 (Btk 215-378)	itself	SEC-MALS				subunits per oligomer	2
B6 (Per2 1-320)	itself	SEC				subunits per oligomer	2
B7 (PGL-3 1-447)	itself	mass photometry				subunits per oligomer	2
B8 (bcsG)	itself	cryo-EM				subunits per oligomer	3
AGGUCCUUUCUUCUAGUGA (ssRNA)	U2AF2 148-342 (Homo sapiens, UniProt P26368)	MST	RNA			Kd	7.8 ± 1.26 µM
VSRVSREELEDRFLRFHDENILLKQHARKQEDKIKRMATKLIRLVNDKKRYERVGG (RPGRIP1L CC1 42-97 L57F (Mus musculus, UniProt Q8CG73); sequence looked up)	itself	SEC-MALS				subunits per oligomer	2
B9 (PRPS2)	PP6C (human)	co-immunoprecipitation, IP-MS	CYB5R4 knockout cells	concentration not given	baseline: CYB5R4 knockout over parental	log2 fold change	-3.56
B10	itself	cross-linking				subunits per oligomer	2
B11 (Pah)	itself	native gel				subunits per oligomer	2
B12 (cooS 1-639 C41S/C49S)	itself	SEC-MALS				subunits per oligomer	2
B13 (RNASE1 mature P114G/H119A)	itself	SEC				subunits per oligomer	2
B14 (RTT106 residues 1-67)	itself	NMR structure				subunits per oligomer	2
B15 (human MCM4)	CYB5R4 knockout human cells	PP6 interaction, 3xFLAG-PP6C IP-MS		concentration not given	baseline: CYB5R4 KO over parental	log2 fold change	-0.54
FER kinase domain , unphosphorylated (Arabidopsis thaliana) (sequence not shown)	itself	AUC		unphosphorylated		subunits per oligomer	2
B16 (REC107)	itself	SEC-MALS				subunits per oligomer	4

Excerpt of the above:
Substance	tested on	test	system	conditions	scale	endpoint	result
B11 (Pah)	itself	native gel				subunits per oligomer	2
B12 (cooS 1-639 C41S/C49S)	itself	SEC-MALS				subunits per oligomer	2
